Measurements gathered from unrelated publications.
Compare with care: the assays were run in different laboratories. ± gives the spread as reported.

For `CCC(=C(c1ccc(Cl)cc1)c1ccc(OCCN(CC)CC)cc1)c1ccc(OC)cc1`, “alkaline phosphatase activity” read 0 (Ishikawa; 10 µM, 72 h, unit not given; baseline: DMSO).
For `COc1cc(CN2CCN(c3ccc(C)cc3)CC2)c2cc3[n+](cc2c1O)CCc1cc2c(cc1-3)OCO2`, the therapeutic index was 28.5 (Ca-Ski and MDCK; SRB; 48 h; baseline: CC50 MDCK over IC50 Ca-Ski).
The AKT phosphorylation of `CCC12CCc3c(c4ccccc4n3C)CCN(CC3OC31)C2` (stereo not shown) is reported as about 54.4% (BV-2; western blot; 25 µM, together with: LPS; baseline: LPS alone).
`CCCC[n+]1cccc(C2NC(C(=O)OCC)C34c5c6c7c8c9c%10c(c%11c%12c3c3c5c5c%13c6c6c7c7c9c9c%14c%10c%10c%11c%11c%12c%12c3c3c5c5c%13c%13c6c6c7c9c7c9c%14c%10c%10c%11c%11c%12c3c3c5c5c%13c6c7c6c9c%10c%11c3c56)C824)c1` (stereo not shown) has a CC50 of 17.8 µM (BCBL1; cell growth or viability; 24 h).
`COc1cc(CNC(=O)C[C@H](C)CCC=C(C)C)ccc1OCc1cn(-c2ccc([N+](=O)[O-])cc2)nn1` gave a growth percent of 45.5% (NCI-H23; SRB; 10 µM, 48 h).
`CC(CCC(=O)NCc1ccc(C(=O)NO)cc1)C1CCC2C3C(O)CC4CC(O)CCC4(C)C3CCC12C` (stereo not shown): ERK1/2 phosphorylation “decreased” (polycystic liver disease cholangiocytes (human); immunoblot; 2 or 10 µM).
Under “log2 fold change”, `O=Cc1c(O)ccc2ccccc12` is recorded as -3.33 (HUVEC; RNA sequencing, refers to: TNFSF15; 75 µM, 24 h; baseline: DMSO).
For `N=C(N/N=C/c1cc(C(F)(F)F)cc(C(F)(F)F)c1)N/N=C/c1cc(C(F)(F)F)cc(C(F)(F)F)c1`, the selectivity ratio was 1.6 (PANC-1; crystal violet; 72 h; baseline: IC50 IMR-90 over IC50 PANC-1).
For `COc1cc(CNC(=O)C[C@H](C)CCC=C(C)C)ccc1OCc1cn(-c2ccc(Cl)cc2Cl)nn1`, the growth percent was 56.6% (NCI-H23; SRB; 10 µM, 48 h).
For `Cc1c(C)n(-c2c(C(C)C)cccc2C(C)C)c(=[Se])n1-c1c(C(C)C)cccc1C(C)C.[Cl][Au]`, the IC50 was 0.9 ± 0.3 µM (LoVo-OXP (oxaliplatin-resistant); MTT; 72 h).
For `CC(=O)OC[C@H]1O[C@@H](Sc2sc(C(=O)c3ccc(Br)cc3)c(N)c2-c2nc3ccccc3s2)[C@H](OC(C)=O)[C@@H](OC(C)=O)[C@@H]1OC(C)=O`, the growth was 22.1% (SK-MEL-5; SRB; 10 µM, 48 h; baseline: untreated).
`COc1cc(CNC(=O)C[C@H](C)CCC=C(C)C)ccc1OCc1cn(-c2cccc([N+](=O)[O-])c2)nn1` gave a growth percent of 72.4% (TK-10; SRB; 10 µM, 48 h).
`C(=C/c1ccccc1)/c1ccccc1` gave an EC50 of over 500 µM (cord blood CD34+ cells; apoptosis, Hoechst staining; 24 h).
`COc1ccc([C@@H]2CC(=O)c3c(O)cc(O[C@@H]4O[C@H](CO[C@@H]5O[C@@H](C)[C@H](O)[C@@H](O)[C@H]5O)[C@@H](O)[C@H](O)[C@H]4O)cc3O2)cc1O` has a gap closure of 14 ± 0.83% (A549; cell migration, scratch; 50 µg/mL, 72 h).
For `O=C(/C=C/c1ccc2ccccc2c1)NO`, the LysoTracker signal was 1.7 ± 0.04 (SK-N-BE(2)-C; flow cytometry; 5.0 µM, unit not given; baseline: control).
`COc1cc(CNC(=O)C[C@H](C)CCC=C(C)C)ccc1OCc1cn(-c2ccc(C#N)cc2)nn1` has a growth percent of 65.2% (HOP-92; SRB; 10 µM, 48 h).
`COc1ccc(NC(=O)COc2ccc(/C=C/C(C)=N/O)cc2OC)cc1` has an ROS-positive cells of 38.8% (SH-SY5Y; DCFDA flow cytometry; 10 µM, together with: amyloid beta 10 µM).
`CCCCCCCCCCCCCCCCCCOc1ccccc1CCOP(=O)([O-])OCC[N+](C)(C)C` — result for “mean growth inhibition”: 27.7% (nine NSCLC cell lines; 10 µM).
The growth percent of `COc1cc(CNC(=O)C[C@H](C)CCC=C(C)C)ccc1OCc1cn(-c2cccc(C(F)(F)F)c2)nn1` is reported as 89% (SK-OV-3 ovarian cancer cells; SRB; 10 µM, 48 h).
